Experimental data gathered from unrelated publications.
Parts stem from different laboratories: compare values within a part only.
UniProt Q9NYY3, sequence (whole entry, looked up): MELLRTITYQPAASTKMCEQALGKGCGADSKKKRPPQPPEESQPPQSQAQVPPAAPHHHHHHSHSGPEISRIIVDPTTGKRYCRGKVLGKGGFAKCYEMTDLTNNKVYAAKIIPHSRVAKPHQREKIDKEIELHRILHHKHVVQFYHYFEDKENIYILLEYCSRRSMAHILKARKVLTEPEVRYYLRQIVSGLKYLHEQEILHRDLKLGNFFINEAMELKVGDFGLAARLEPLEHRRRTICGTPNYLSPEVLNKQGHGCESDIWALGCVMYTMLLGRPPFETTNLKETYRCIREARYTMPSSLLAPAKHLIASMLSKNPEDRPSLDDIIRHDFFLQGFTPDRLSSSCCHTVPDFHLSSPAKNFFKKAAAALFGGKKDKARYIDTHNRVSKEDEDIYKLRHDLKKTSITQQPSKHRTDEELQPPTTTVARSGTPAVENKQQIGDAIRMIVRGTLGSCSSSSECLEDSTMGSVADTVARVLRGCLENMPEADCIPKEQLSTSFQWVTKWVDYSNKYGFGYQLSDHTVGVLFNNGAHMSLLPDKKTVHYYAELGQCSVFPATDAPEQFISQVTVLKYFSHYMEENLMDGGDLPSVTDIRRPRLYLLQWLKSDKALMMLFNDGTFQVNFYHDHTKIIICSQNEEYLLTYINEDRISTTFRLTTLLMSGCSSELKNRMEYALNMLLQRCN
UniProt Q15746, sequence (whole entry, looked up): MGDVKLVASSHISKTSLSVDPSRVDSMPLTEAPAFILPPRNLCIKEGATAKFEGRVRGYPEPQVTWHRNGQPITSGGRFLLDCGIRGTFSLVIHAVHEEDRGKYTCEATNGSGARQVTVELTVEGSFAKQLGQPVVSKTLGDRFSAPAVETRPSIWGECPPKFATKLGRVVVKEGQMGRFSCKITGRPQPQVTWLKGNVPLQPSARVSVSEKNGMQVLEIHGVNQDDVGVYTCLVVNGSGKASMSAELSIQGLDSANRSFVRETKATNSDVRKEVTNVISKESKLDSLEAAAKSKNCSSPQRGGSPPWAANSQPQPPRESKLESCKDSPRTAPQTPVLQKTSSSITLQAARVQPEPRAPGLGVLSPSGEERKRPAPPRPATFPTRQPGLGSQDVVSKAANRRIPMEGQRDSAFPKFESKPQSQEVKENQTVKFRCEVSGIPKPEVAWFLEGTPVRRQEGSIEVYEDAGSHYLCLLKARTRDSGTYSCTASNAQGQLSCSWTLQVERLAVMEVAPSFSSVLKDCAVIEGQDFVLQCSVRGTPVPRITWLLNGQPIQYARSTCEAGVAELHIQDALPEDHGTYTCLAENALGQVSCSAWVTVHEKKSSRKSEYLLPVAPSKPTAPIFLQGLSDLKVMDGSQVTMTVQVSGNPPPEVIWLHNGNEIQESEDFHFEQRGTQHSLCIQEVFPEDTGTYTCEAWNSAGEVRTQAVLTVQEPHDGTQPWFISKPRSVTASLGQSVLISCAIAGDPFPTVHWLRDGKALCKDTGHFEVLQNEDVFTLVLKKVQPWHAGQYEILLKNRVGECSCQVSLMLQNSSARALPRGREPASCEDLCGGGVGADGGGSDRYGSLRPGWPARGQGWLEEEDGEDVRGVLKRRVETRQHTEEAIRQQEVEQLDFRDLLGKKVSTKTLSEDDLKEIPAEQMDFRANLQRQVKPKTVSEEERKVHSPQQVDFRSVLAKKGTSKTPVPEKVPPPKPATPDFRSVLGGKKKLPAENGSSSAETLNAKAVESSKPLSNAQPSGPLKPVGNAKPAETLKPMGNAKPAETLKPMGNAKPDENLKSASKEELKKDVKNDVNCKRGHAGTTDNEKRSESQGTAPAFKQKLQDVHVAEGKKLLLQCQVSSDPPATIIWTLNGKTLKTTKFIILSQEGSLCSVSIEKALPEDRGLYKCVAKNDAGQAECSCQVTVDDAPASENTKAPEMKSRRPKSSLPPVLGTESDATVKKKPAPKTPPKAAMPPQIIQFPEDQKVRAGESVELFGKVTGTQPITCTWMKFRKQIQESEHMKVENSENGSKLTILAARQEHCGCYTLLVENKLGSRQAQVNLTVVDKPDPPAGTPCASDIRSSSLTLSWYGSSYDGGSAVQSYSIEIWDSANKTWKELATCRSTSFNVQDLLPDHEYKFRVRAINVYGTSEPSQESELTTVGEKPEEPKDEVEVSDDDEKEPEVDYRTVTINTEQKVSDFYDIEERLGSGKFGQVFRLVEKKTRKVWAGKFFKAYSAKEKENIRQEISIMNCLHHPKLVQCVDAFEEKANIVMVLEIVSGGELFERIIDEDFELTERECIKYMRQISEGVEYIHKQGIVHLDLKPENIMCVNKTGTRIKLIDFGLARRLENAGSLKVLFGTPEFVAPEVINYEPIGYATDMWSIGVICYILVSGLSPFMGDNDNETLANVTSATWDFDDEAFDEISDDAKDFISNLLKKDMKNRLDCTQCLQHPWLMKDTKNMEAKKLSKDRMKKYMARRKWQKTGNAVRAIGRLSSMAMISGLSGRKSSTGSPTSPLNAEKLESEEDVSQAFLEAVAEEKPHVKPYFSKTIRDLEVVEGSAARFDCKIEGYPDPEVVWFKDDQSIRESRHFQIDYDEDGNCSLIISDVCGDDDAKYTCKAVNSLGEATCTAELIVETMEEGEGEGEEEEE
UniProt P10721, sequence (whole entry, unmodified, looked up): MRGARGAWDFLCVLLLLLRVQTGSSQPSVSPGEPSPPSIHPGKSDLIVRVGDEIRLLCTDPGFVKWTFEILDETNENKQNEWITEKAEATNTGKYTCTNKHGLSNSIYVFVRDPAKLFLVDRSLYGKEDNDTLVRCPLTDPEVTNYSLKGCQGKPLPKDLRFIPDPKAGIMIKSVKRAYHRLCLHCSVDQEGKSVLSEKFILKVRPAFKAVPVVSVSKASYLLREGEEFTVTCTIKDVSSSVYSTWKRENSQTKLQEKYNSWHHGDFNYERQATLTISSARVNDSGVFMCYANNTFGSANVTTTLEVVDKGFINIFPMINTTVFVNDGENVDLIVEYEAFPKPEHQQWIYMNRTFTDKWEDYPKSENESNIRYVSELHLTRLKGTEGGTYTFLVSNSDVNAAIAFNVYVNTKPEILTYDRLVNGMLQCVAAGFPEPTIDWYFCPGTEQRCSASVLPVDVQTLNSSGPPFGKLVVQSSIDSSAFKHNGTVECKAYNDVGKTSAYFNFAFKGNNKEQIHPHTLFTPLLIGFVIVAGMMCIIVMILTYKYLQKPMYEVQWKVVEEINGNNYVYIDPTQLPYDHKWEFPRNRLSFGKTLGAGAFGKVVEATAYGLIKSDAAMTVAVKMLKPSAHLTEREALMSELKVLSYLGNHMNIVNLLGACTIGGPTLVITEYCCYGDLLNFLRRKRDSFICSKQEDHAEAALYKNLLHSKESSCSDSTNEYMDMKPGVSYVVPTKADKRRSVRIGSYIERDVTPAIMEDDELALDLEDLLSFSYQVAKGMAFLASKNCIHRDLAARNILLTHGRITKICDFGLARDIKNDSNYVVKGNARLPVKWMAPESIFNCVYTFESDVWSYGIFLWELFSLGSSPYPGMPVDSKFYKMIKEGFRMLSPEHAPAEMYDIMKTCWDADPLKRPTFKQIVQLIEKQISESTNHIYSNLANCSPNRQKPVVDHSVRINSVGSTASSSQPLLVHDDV
UniProt Q15569, sequence (whole entry, looked up): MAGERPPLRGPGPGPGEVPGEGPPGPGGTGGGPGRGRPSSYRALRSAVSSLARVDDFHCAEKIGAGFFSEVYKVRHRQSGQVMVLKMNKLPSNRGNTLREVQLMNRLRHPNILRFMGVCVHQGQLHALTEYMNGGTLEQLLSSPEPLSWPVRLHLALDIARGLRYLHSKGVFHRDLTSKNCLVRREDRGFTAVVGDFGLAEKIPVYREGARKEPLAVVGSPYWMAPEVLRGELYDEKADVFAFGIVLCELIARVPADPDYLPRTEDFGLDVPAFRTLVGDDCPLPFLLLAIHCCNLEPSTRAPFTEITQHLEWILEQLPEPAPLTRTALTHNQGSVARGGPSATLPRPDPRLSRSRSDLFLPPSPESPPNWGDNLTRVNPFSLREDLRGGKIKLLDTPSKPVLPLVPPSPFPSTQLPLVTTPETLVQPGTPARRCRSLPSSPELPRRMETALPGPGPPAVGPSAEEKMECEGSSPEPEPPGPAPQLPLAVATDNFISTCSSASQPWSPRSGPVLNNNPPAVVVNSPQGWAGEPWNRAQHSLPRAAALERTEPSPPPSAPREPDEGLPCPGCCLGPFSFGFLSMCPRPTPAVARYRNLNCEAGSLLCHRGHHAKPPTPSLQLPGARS
UniProt Q86YV6, sequence (whole entry, looked up): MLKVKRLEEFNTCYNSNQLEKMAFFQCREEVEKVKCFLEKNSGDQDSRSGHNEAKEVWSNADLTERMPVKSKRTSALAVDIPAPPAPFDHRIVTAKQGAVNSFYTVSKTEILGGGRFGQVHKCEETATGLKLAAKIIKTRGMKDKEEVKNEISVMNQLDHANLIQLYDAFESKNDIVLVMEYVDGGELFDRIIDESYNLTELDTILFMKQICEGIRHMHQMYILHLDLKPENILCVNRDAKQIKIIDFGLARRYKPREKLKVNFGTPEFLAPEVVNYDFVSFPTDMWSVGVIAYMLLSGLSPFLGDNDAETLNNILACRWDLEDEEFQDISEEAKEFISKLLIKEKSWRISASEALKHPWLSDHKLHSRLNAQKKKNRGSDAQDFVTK

Sample 1 — technique: protein-binding microarray; molecule type: double-stranded DNA, one strand shown; medium: in vitro; concentration: 250 nM; notes: 60-bp whole probe; with: salmon DNA 0.4 mg/ml; reference: random background probes; direction: higher = stronger binding; measurement: log fluorescence; constant ends, left off below: GCCTAGCAC … GTCTTGATTCGCTTGACGCTGCTG
Target: Interferon regulatory factor 5, full length, phosphomimetic (IRF5, Homo sapiens, UniProt Q13568-2, residues 1-514, K96S/S451D/S453D/S456D/S462D)
GACGGTATCGACTAACGGGACGTGCTA: 2.91 z-score
TCCACTTTCTTTTGCTTGTTGTGCTAG: 3.08 z-score
TTAGGCATCGGGTATCGGTTAGTGCTA: 3.87 z-score
GGCGGTATCCTTCTCCTGACGTGCTAG: 0.0423 z-score
GATTATAAAATGTGTGTTTGGTGCTAG: 0.423 z-score
GTCGGTTTCGACACTGGGGACGTGCTA: 5.63 z-score
TCAGGTTTCGGTTCCGGTTAGTGCTAG: 9.85 z-score
AGTCCGTGGATTGACCAGATGTGCTAG: -0.274 z-score

Sample 2 — organism: Sarcocystis neurona; read-out: parasite growth; concentration: 10 µM; notes: secondary screen; measurement: inhibition
C/C=C1\[C@H]2C=C(C)C[C@]1(N)c1ccc(=O)[nH]c1C2: -33.2%
C[n+]1ccccc1/C=N/O: -30.3%
CN1CCN(CCCN2c3ccccc3Sc3ccc(Cl)cc32)CC1: -6.9%

Sample 3 — read-out: cell-free assay; technique: competition with immobilised ligand; concentration: 1 µM; measurement: remaining binding
Compound: COc1ccc2c(c1)O[C@H](c1ccc(OC)c(OC)c1)C[C@@H]2NC(=O)C1(c2ccc3c(c2)OC(F)(F)O3)CC1
SRPK3 (Homo sapiens, UniProt Q9UPE1): 97%
NTRK2 (Homo sapiens, UniProt Q16620): 100%
PI4KB (Homo sapiens, UniProt Q9UBF8): 81%
LRRK2 (Homo sapiens, UniProt Q5S007, G2019S): 100%
PIK3CB (Homo sapiens, UniProt P42338): 100%
CAMK4 (Homo sapiens, UniProt Q16566): 100%
KIT (Homo sapiens, UniProt P10721, D816V): 99%
BRAF (Homo sapiens, UniProt P15056): 92%
PRKG1 (Homo sapiens, UniProt Q13976): 100%
MYLK4 (Homo sapiens, UniProt Q86YV6): 100%
MYLK (Homo sapiens, UniProt Q15746): 100%
TESK1 (Homo sapiens, UniProt Q15569): 98%
PLK2 (Homo sapiens, UniProt Q9NYY3): 100%
PRKAA2 (Homo sapiens, UniProt P54646): 98%
Tyrosine-protein kinase ABL1, non-phosphorylated (ABL1, Homo sapiens, UniProt P00519, F317L): 97%

Sample 4 — technique: RNA Bind-n-Seq; molecule type: RNA; medium: in vitro; concentration: 15 pmol; notes: 4-mer, random 30-nt RNA, single round; with: DMSO vehicle, 2 mM AMP-PNP; reference: input library; direction: higher = stronger binding; measurement: 4-mer enrichment
Target: Eukaryotic initiation factor 4A-I (EIF4A1, Homo sapiens, UniProt P60842, residues 1-406, full length assumed)
UniProt P60842, sequence (whole entry, looked up): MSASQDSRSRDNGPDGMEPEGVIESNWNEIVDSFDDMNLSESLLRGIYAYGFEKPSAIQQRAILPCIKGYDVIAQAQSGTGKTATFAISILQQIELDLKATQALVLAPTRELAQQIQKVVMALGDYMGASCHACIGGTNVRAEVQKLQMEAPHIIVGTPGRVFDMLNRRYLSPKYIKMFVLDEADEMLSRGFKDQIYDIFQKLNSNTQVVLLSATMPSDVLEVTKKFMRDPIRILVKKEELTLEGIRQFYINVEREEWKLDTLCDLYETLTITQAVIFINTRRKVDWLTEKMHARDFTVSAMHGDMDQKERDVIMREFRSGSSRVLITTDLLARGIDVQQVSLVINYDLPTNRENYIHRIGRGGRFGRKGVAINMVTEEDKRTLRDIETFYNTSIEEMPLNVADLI
UUGA: 1.03 fold
GCCG: 1.47 fold
GUGG: 0.871 fold
AGUC: 0.953 fold
CCUU: 1.06 fold
CGGU: 0.926 fold
AAAU: 1.13 fold
UGCC: 1.25 fold
